Assay results collected from several papers.
Every numbered part comes from another study and shows a few of its results, in no order. Changes are numbered by the printed parent chain.

Series 1
Target: tungstate, free oxyanion
Method: microfluidic competitive inhibition
Matrix: in vitro, cell-free expressed
Tested at: not given
Notes: derived from inhibition constants, unchanged parent 2230 nM
Reading: lower = stronger binding
Measurement: oxyanion analog dissociation constant
Starting sequence: PafA, mature enzyme, eGFP fusion (Elizabethkingia meningoseptica, UniProt Q9KJX5); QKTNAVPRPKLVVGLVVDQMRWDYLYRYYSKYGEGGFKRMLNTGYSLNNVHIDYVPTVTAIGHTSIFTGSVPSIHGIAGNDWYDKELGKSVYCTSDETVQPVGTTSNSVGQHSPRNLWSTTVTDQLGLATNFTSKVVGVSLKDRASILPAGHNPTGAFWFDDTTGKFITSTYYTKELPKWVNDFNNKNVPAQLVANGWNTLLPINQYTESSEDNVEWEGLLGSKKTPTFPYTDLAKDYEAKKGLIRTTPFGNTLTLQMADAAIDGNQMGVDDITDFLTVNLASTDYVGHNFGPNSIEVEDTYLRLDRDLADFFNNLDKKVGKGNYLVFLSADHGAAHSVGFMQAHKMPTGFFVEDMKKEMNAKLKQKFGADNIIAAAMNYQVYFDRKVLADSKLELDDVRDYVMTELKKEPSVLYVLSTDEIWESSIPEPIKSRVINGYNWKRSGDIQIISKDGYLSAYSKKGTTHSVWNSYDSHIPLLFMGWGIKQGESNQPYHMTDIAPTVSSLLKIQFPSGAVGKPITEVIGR
V287G: 4.74 µM
T164V: 2.23 µM
V382G: 2.26 µM
P56V: 1.53 µM
V523G: 2.58 µM
V99G: 2.37 µM

Series 2
Target: UDP-N-acetylglucosamine--peptide N-acetylglucosaminyltransferase 110 kDa subunit (OGT, Homo sapiens, UniProt O15294)
UniProt O15294, sequence (whole entry, looked up): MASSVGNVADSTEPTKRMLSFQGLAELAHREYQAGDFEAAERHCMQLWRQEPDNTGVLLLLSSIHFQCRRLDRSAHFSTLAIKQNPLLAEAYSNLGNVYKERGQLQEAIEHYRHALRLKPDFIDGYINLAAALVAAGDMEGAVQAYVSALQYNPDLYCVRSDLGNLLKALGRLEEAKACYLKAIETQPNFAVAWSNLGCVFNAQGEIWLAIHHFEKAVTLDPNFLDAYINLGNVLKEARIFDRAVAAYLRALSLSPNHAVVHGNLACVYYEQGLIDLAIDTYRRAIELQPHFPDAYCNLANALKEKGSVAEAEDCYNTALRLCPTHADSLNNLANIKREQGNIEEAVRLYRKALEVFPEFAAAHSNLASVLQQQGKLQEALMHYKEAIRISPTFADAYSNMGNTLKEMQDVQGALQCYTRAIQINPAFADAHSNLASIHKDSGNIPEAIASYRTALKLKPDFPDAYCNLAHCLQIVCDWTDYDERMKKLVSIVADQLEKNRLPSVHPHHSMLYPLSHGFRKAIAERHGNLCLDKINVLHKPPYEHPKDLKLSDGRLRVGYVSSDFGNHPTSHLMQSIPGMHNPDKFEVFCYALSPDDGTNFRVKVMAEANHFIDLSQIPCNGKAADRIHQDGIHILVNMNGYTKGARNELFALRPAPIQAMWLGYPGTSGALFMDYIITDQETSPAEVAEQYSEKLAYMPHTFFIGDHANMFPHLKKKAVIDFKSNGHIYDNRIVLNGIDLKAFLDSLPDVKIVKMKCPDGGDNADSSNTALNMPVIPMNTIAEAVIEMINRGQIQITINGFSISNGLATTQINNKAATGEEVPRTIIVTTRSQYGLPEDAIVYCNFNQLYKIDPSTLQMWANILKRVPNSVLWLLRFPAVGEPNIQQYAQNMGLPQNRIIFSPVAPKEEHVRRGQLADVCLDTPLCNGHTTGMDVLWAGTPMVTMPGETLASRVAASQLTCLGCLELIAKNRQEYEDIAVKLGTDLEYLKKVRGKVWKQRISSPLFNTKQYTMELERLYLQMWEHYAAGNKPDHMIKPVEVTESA
Observed: binding
Method: phage display NGS
Molecule type: peptide
Tested at: concentration not given
Notes: panning round 2
Relative to: input library
Measurement: enrichment fold change
VVESMFMPEYQIVPV: 8.29
SYRPMYQIVQPIKQY: 3.55
NTPQYYRPYYQITVK: 7.86
TWRHVVEANHVHMPK: 12.4
EWLPMYQIQYVMYAT: 6.62

Other studies, line by line
EIF4A3 (Homo sapiens, UniProt P38919)
interaction screen (MAGOH (Homo sapiens, UniProt P61326); cross-linking MS; hits only): cross-linked

DTFDEAFLAAVRSHQG
binding enrichment score (human cyclin B1; peptide binding, yeast competitive growth sequencing; peptide, Saccharomyces cerevisiae, cyclin B1-Cln2 fusion; concentration not given, peptide tiling library; direction not given): -0.00479

RFC2 (Homo sapiens, UniProt P35250)
cross-linked residues (RFC1 (Homo sapiens, UniProt P35251); cross-linking MS; cell fractions; together with: DMTMM): E329 to K928

CCT4 (Homo sapiens, UniProt P50991)
cross-linked residues (CCT7 (Homo sapiens, UniProt Q99832); cross-linking MS; cell fractions; together with: DMTMM): P2 to D70

DNAAF10 (Homo sapiens, UniProt Q96MX6)
cross-linked residues (IPO9 (Homo sapiens, UniProt Q96P70); cross-linking MS; cell fractions; together with: DSSO): K66 to K916

A few entries again (series 1):
T164V: 2.23 µM
P56V: 1.53 µM
